# Measurements pooled from the literature.
# Parts stem from different laboratories: compare values within a part only.

# Series 1
# Target: Histone acetyltransferase KAT6A, winged helix 1, GST fusion (KAT6A, Homo sapiens, UniProt Q92794, residues 1-85)
# Method: protein binding microarray
# Molecule type: double-stranded DNA, one strand shown
# Sample: in vitro
# Tested at: not given
# Setting: 8-mer, flanks averaged, mean of 2 arrays, mostly near background
# Relative to: not given
# Reading: higher = stronger binding
# Residues (chain): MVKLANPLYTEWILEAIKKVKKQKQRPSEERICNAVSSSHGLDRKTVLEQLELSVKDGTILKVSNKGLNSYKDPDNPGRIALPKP
Oligonucleotide,E-score
CAATAGCC,-0.0131
CGTGTACA,0.0519
ACTACCAC,-0.182
CAGCAAAA,-0.109
ATGTTAGA,-0.173
ACACGACG,0.0703
GCCGCGCC,0.439
ACTACACT,-0.238
CCCGGGCC,0.397

# Series 2
# Target: Interferon regulatory factor 5, full length, phosphomimetic (IRF5, Homo sapiens, UniProt Q13568-2, residues 1-514, S451D/S453D/S456D/S462D)
# Method: protein-binding microarray
# Molecule type: double-stranded DNA, one strand shown
# Sample: in vitro
# Tested at: 940 nM top
# Setting: 60-bp whole probe
# With: salmon DNA 0.4 mg/ml
# Relative to: random background probes
# Reading: higher = stronger binding
# All sequences stand within: GCCTAGCAC … GTCTTGATTCGCTTGACGCTGCTG
Oligonucleotide,fitted relative affinity
TGAACTTCGGCCTCTAGGTTTGTGCTA,-0.605 z-score
TCAAAGCTCCTATCTTATACTGTGCTA,0.104 z-score
GGGCATTTGGAAAATGAAAATGTGCTA,-0.398 z-score
GACGATTTCCGTTTCGAGACGTGCTAG,2.37 z-score
CTCACTCTGTCCCTCTGTGAGTGCTAG,0.534 z-score
GACGGACTGGACTATAGGGACGTGCTA,-0.519 z-score
TTAGGACTGGACGTTCGGTTAGTGCTA,-0.397 z-score
TTAGGTATCAGACTGGGTTAGTGCTAG,0.805 z-score

# Series 3
# Target: PABPC1L2, full length, GST fusion (mouse, UniProt A0ABA7IW68)
# Method: RNAcompete
# Molecule type: RNA
# Sample: in vitro
# Tested at: 20 nM
# Setting: 7-mer, probes averaged, single round
# Relative to: mean of 7-mers
# Reading: higher = stronger binding
# Residues (chain): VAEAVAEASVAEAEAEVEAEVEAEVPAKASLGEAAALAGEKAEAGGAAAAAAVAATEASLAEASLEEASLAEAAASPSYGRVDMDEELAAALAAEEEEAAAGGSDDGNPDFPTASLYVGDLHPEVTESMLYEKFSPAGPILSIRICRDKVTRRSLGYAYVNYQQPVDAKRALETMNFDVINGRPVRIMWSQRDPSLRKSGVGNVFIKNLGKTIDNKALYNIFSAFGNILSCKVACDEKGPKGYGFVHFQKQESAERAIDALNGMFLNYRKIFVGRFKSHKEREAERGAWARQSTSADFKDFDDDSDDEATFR
Oligonucleotide,7-mer Z-score
UUAUAGU,-0.248
GGAAACG,-0.0283
UCACAAU,-0.139
UCGAGAG,-0.135
GAUGAAU,-0.135
UGCACAC,-0.177
CACGCGA,-0.117
GUCGAGC,-0.184
AGAUUUC,-0.304
GACCGAA,0.0642
CCUAUCG,-0.28
UUCGCAC,-0.425

# Other studies, line by line
Molecule,target,assay,system,setting,scale,endpoint,value
"PhoQ, residues 284 288 289 292 302 303 TLASMF","PhoP, residues 12 14 15 18 19 IQFRS (Escherichia coli, UniProt P23836)","Sort-seq, item: YFP reporter",E. coli,"PhoQ-PhoP variant library, with: 10 µM Mg2+","relative to: high Mg2+ state, higher = stronger signaling",fold induction,7.45

# Repeated from above (series 3):
Oligonucleotide,7-mer Z-score
UUAUAGU,-0.248
GGAAACG,-0.0283
UCACAAU,-0.139
UCGAGAG,-0.135
